# Measurements of several laboratories.
# Compare with care: the assays were run in different laboratories. ± marks the error that the study gave.
SMILES,test system,conditions,tissue uptake
O=C(NCC1OC2CCC=CCCC2O1)c1ccc([18F])nc1 (stereo not drawn),"healthy female BALB/c nude mice, kidneys","intravenous, 7.4 MBq per mouse, 120 min",1.3 ± 0.1 %ID/g
Cc1cc(C)n(CCN(CCN)CCCCCCNC(=O)[C@@H](N)Cc2c[nH]cn2)n1.[99Tc+].[C-]#[O+].[C-]#[O+].[C-]#[O+],"BALB/c nude mice, A549 xenograft, heart","intravenous, 4 h",0.4 ± 0.03 %IA/g
CCCC[C@H](NC(=O)COCCOCCNC(=O)CN1CCN(CC(=O)O)CCN(CC(=O)O)CC1)C(=O)N[C@H]1CC(=O)NCCCC[C@@H](C(N)=O)NC(=O)[C@H](Cc2c[nH]c3ccccc23)NC(=O)[C@H](CCCNC(=N)N)NC(=O)[C@@H](Cc2ccccc2)NC(=O)[C@H](Cc2c[nH]cn2)NC1=O [fluorine-18 labelled],"C57 mice B16-F10 melanoma, stomach","intravenous, 0.37 MBq, 1 h",1.3 ± 0.46 %ID/g
N#C[C@@H]1CCCN1C(=O)CNC(=O)c1ccnc2ccc(OCCCN3CCN(C(=O)CCc4ccc5c(c4)CN4CCN6CC(=O)[O][68Ga-]([O]C(=O)C4)([O]5)[O]c4ccc(CCC(=O)N5CCN(CCCOc7ccc8nccc(C(=O)NCC(=O)N9CCC[C@H]9C#N)c8c7)CC5)cc4C6)CC3)cc12,"BALB/c nude mice, U-87 MG xenograft, muscle","1 h, blocking, added: DOTA-FAPI-04 40 nmol/mouse co-injected",0.78 ± 0.66 %ID/g
CC(C)C[C@H](NC(=O)[C@@H](CCCCNC(=O)[C@@H](Cc1ccccc1)NC(=O)CCCCCCCNC(=O)CN1CCN(CC(=O)O)CCN(CC(=O)O)CCN(CC(=O)O)CC1)NC(=O)[C@H](Cc1ccc(O)cc1)NC(=O)[C@H](CO)NC(=O)[C@H](Cc1c[nH]c2ccccc12)NC(=O)[C@H](Cc1c[nH]cn1)NC(=O)[C@@H]1CCC(=O)N1)C(=O)N[C@@H](CCCNC(=N)N)C(=O)N1CCC[C@H]1C(=O)NCC(N)=O [indium-111 labelled],"male athymic nude mice, DU-145 prostate cancer xenograft, blood","intravenous, 0.037 MBq, 4 h",0.07 ± 0.05 %ID/g
CCCC[C@H](NC(=O)CCCCCCCNC(=O)CN1CCN(CC(=O)O)CCN(CC(=O)O)CC1)C(=O)N[C@H]1CC(=O)NCCCC[C@@H](C(N)=O)NC(=O)[C@H](Cc2c[nH]c3ccccc23)NC(=O)[C@H](CCCNC(=N)N)NC(=O)[C@@H](Cc2ccccc2)NC(=O)[C@H](Cc2c[nH]cn2)NC1=O [fluorine-18 labelled],"C57 mice, B16/F10 melanoma, tumor","intravenous, 1 h, added: NDP-MSH 10 µg",1 ± 0.16 %ID/g
COc1ccc(Nc2nc(Nc3ccc(OCCOCC[18F])cc3)ncc2Br)cc1,"ICR mice, S180 tumour-bearing, brain","intravenous, 370 kBq, 5 min",2.52 ± 0.44 %ID/g
O=C(NCC1OC2CCC=CCCC2O1)c1ccc(COCCOCCOCC[18F])cc1 (stereo not drawn),"healthy female BALB/c nude mice, small intestine","intravenous, 7.4 MBq per mouse, 15 min",10.3 ± 1.1 %ID/g
CCCC[C@H](NC(=O)CNC(=O)CNC(=O)[C@H](CCCCNC(=O)[C@H](CC(=O)O)NC(=O)C(C)c1ccc(CC(C)C)cc1)NC(=O)CN1CCN(CC(=O)O)CCN(CC(=O)O)CCN(CC(=O)O)CC1)C(=O)N[C@H]1CC(=O)NCCCC[C@@H](C(N)=O)NC(=O)[C@H](Cc2c[nH]c3ccccc23)NC(=O)[C@H](CCCNC(=N)N)NC(=O)[C@@H](Cc2ccccc2)NC(=O)[C@H](Cc2c[nH]cn2)NC1=O (stereo partly drawn) [lutetium-177 labelled],"C57 mice, tumour-bearing, bone",2 h,0.38 ± 0.17 %ID/g

# A few entries again:
SMILES,test system,conditions,tissue uptake
N#C[C@@H]1CCCN1C(=O)CNC(=O)c1ccnc2ccc(OCCCN3CCN(C(=O)CCc4ccc5c(c4)CN4CCN6CC(=O)[O][68Ga-]([O]C(=O)C4)([O]5)[O]c4ccc(CCC(=O)N5CCN(CCCOc7ccc8nccc(C(=O)NCC(=O)N9CCC[C@H]9C#N)c8c7)CC5)cc4C6)CC3)cc12,"BALB/c nude mice, U-87 MG xenograft, muscle","1 h, blocking, added: DOTA-FAPI-04 40 nmol/mouse co-injected",0.78 ± 0.66 %ID/g
